Measurements from different studies.
Each line is one published result; not all experiments were run side by side. Several values in a cell are separate wells, animals, samples, runs or records. Numbers after ± are the reported error.

Compound | test | system | conditions | endpoint | result
CC(C)C[C@H](NC(=O)[C@@H](CCCCNC(=O)CCCCCCCCCCNC(=O)CN1CCN(CC(=O)O)CCN(CC(=O)O)CCN(CC(=O)O)CC1)NC(=O)[C@H](Cc1ccc(O)cc1)NC(=O)[C@H](CO)NC(=O)[C@H](Cc1c[nH]c2ccccc12)NC(=O)[C@H](Cc1cnc[nH]1)NC(=O)[C@@H]1CCC(=O)N1)C(=O)N[C@@H](CCCN=C(N)N)C(=O)N1CCC[C@H]1C(=O)NCC(N)=O [indium-111 labelled] |  | athymic nude mouse, female, intestines | intravenous, 0.037 MBq, 0.5 h | tissue uptake | 2.13 ± 0.18 %ID
C=C1CC[C@H](OCCCNC(=O)CCOCCOCCOCCOCCOCCOCCOCCOCCOCCOCCOCCOCCOCCOCCOCCOCCOCCOCCOCCOCCOCCOCCOCCOCCOCCOCCOCCOCCOCCOCCOCCOCCOCCOCCOCCOCCNC(=O)CCN2C(=O)CC(SC[C@H](NC(=O)[C@H](Cc3ccccc3)NC(=O)[C@H](CC(N)=O)NC(=O)[C@H](Cc3c[nH]cn3)NC(=O)[C@@H](NC(=O)[C@H](CC(=O)O)NC(=O)[C@H](CCC(N)=O)NC(=O)[C@H](CC(C)C)NC(=O)[C@H](CCCCN)NC(=O)[C@H](CCCCN)NC(=O)[C@H](CCCNC(=N)N)NC(=O)[C@H](CC(C)C)NC(=O)[C@H](Cc3c[nH]c4ccccc34)NC(=O)[C@H](CCC(=O)O)NC(=O)[C@@H](NC(=O)[C@H](CCCNC(=N)N)NC(=O)[C@H](CCC(=O)O)NC(=O)[C@H](CCSC)NC(=O)[C@H](CO)NC(=O)[C@H](CC(N)=O)NC(=O)[C@H](CC(C)C)NC(=O)[C@H](Cc3c[nH]cn3)NC(=O)[C@H](CCCCN)NC(=O)CNC(=O)[C@H](CC(C)C)NC(=O)[C@H](CC(N)=O)NC(=O)[C@H](Cc3c[nH]cn3)NC(=O)[C@H](CCSC)NC(=O)[C@H](CC(C)C)NC(=O)[C@H](CCC(N)=O)NC(=O)[C@@H](NC(=O)[C@H](CCC(=O)O)NC(=O)[C@H](CO)NC(=O)[C@@H](NC(=O)[C@@H](N)CO)C(C)C)[C@@H](C)CC)C(C)C)C(C)C)C(=O)O)C2=O)C/C1=C/C=C1\CCC[C@]2(C)[C@@H]([C@H](C)CCCC(C)(C)O)CC[C@@H]12 (some centres unmarked) |  | male cynomolgus monkey, plasma | subcutaneous, 0.02 mg/kg, single dose | half-life | 24.3 h
CC[C@H](C)[C@H](NC(=O)[C@H](CS)NC(=O)[C@H](CCCCN)NC(=O)[C@H](Cc1ccc(O)cc1)NC(=O)[C@H](CC(C)C)NC(=O)[C@H](CCC(=O)O)NC(=O)CNC(=O)[C@H](C)NC(=O)[C@H](CCCCN)NC(=O)[C@H](CC(C)C)NC(=O)[C@H](C)NC(=O)[C@H](C)NC(=O)[C@H](CC(N)=O)NC(=O)[C@H](C)NC(=O)[C@H](CCCNC(=N)N)NC(=O)[C@H](CCCNC(=N)N)NC(=O)CCOCCOCCOCCOCCNC(=O)CC[N+]1=C(C=CC=CC=CC=C2N(CCC(=O)O)c3ccc4ccccc4c3C2(C)C)C(C)(C)c2c1ccc1ccccc21)C(=O)N[C@@H](CC(C)C)C(=O)N[C@@H](Cc1ccc(O)cc1)C(N)=O | NIR fluorescence imaging | C57BL/6 mouse K/BxN serum-transfer arthritis, whole body | injection, dose not given, after injection | duration of fluorescence increase | 2 h
CC(C)C[C@H](NC(=O)[C@H](Cc1ccc(O)cc1)NC(=O)[C@@H](CCCNC(=N)N)NC(=O)[C@@H](CO)NC(=O)[C@H](Cc1ccccc1)NC(=O)[C@H](CC1CCCCC1)NC(=O)[C@H](CC(=O)O)NC(=O)CN1CCN(CC(=O)O)CCN(CC(=O)O)CCN(CC(=O)O)CC1)C(=O)N[C@@H](Cc1c[nH]c2ccccc12)C(=O)N[C@@H](CO)C(=O)O [copper-64 labelled] |  | human, lower large intestine | concentration not given, 3 h | activity concentration | 1470 Bq/mL and 1970 Bq/mL and 1690 Bq/mL and 907 Bq/mL and 1150 Bq/mL and 1450 Bq/mL
CCCC[C@H](NC(=O)COCCOCCNC(=O)CN1CCN(CC(=O)O)CCN(CC(=O)O)CC1)C(=O)N[C@H]1CC(=O)NCCCC[C@@H](C(N)=O)NC(=O)[C@H](Cc2c[nH]c3ccccc23)NC(=O)[C@H](CCCNC(=N)N)NC(=O)[C@@H](Cc2ccccc2)NC(=O)[C@H](Cc2c[nH]cn2)NC1=O [technetium-99m labelled] |  | C57 mouse, kidneys | intravenous, 0.037 MBq, 2 h | tissue uptake | < 1.8 %ID/g
C[C@@H](O)[C@@H]1NC(=O)[C@H](CCCCN)NC(=O)[C@@H](Cc2c[nH]c3ccccc23)NC(=O)[C@H](Cc2ccc(O)cc2)NC(=O)[C@@H](NC(=O)[C@@H](Cc2ccccc2)NC(=O)CN2CCN(CC(=O)O)CCN(CC(=O)O)CCN(CC(=O)O)CC2)CSSC[C@@H](C(=O)N[C@H](CO)[C@@H](C)O)NC1=O [gallium-67 labelled] |  | male ICR mouse, stomach | intravenous, 11 kBq, 1 h, radiolabelled | tissue uptake | 4.37 ± 0.97 %ID
CC(C)C[C@H](NC(=O)[C@@H](CCCCNC(=O)[C@@H](Cc1ccccc1)NC(=O)CCCCCNC(=O)CN1CCN(CC(=O)O)CCN(CC(=O)O)CCN(CC(=O)O)CC1)NC(=O)[C@H](Cc1ccc(O)cc1)NC(=O)[C@H](CO)NC(=O)[C@H](Cc1c[nH]c2ccccc12)NC(=O)[C@H](Cc1c[nH]cn1)NC(=O)[C@@H]1CCC(=O)N1)C(=O)N[C@@H](CCCNC(=N)N)C(=O)N1CCC[C@H]1C(=O)NCC(N)=O [indium-111 labelled] |  | female athymic nude mice, pancreas | intravenous, 0.037 MBq, 0.5 h | tissue uptake | 0.29 ± 0.14 %ID/g
CCCC[C@H](NC(=O)CCCCCCCNC(=O)CN1CCN(CC(=O)O)CCN(CC(=O)O)CC1)C(=O)N[C@H]1CC(=O)NCCCC[C@@H](C(N)=O)NC(=O)[C@H](Cc2c[nH]c3ccccc23)NC(=O)[C@H](CCCNC(=N)N)NC(=O)[C@@H](Cc2ccccc2)NC(=O)[C@H](Cc2c[nH]cn2)NC1=O [technetium-99m labelled] |  | C57 mouse, bone | intravenous, 0.037 MBq, 24 h | tissue uptake | 0.13 ± 0.08 %ID/g

Some of these lines once more:
Compound | test | system | conditions | endpoint | result
CCCC[C@H](NC(=O)CCCCCCCNC(=O)CN1CCN(CC(=O)O)CCN(CC(=O)O)CC1)C(=O)N[C@H]1CC(=O)NCCCC[C@@H](C(N)=O)NC(=O)[C@H](Cc2c[nH]c3ccccc23)NC(=O)[C@H](CCCNC(=N)N)NC(=O)[C@@H](Cc2ccccc2)NC(=O)[C@H](Cc2c[nH]cn2)NC1=O [technetium-99m labelled] |  | C57 mouse, bone | intravenous, 0.037 MBq, 24 h | tissue uptake | 0.13 ± 0.08 %ID/g
